# Measurements from different studies.
Molecule,target or system,assay,test system,conditions,scale,measurement,result
gentamicin sulfate,Acinetobacter baumannii,,"ATCC 19606, susceptible","18 h, 37 °C, LED light 1.57 mW for 10 min",,MIC,0.5 µM
GSGAGIATEV,human MAGI1-2/6 PDZ construct (MBP fusion),automated holdup,"peptide, crude extract","concentration not given, uncorrected, unit not given","reference: biotin control resin, higher = stronger binding",binding intensity,0.432
colistin,Acinetobacter baumannii,,clinical isolate 3A1,,,MIC,0.5 µg/mL
Polymyxin B,Acinetobacter baumannii,broth microdilution,ATCC 19606,,,MIC,1 µg/mL
PMESGICTIV,human MAGI1-2/6 PDZ construct (MBP fusion),automated holdup,"peptide, purified PDZ protein","concentration not given, unit not given","reference: biotin control resin, higher = stronger binding",binding intensity,-0.00356
ramoplanin,Acinetobacter baumannii,broth microdilution,ATCC 17978,,,MIC,640 µM
polymyxin B,Acinetobacter baumannii,broth microdilution,"ATCC 19606, Mueller-Hinton broth","24 h, 37 °C",,MIC,2 µg/mL
benzalkonium chloride,Acinetobacter baumannii,,ATCC 17498,tested up to 1 µM,,MIC,32 µM
ALMQWVSQV,Jurkat T cells expressing 1G4 TCR,"NFAT-eGFP reporter, fluorescence microscopy",peptide,"concentration not given, HLA-A*02:01 NY-ESO system",,reporter activation,22.1%
colistin trifluoroacetate,Acinetobacter baumannii,broth microdilution,ATCC 19606,,,MIC,0.06 µg/mL
colistin,Acinetobacter baumannii,broth microdilution,clinical isolate RKI-No_16/15,,,MIC,≤ 0.5 µg/mL
colistin,Acinetobacter baumannii,broth microdilution,ATCC 19606,,,MIC,< 0.125 µg/mL
GLGQWVPQV,Jurkat T cells expressing 1G4 TCR,"NFAT-eGFP reporter, flow cytometry",peptide,"concentration not given, HLA-A*02:01 NY-ESO system",,reporter activation,0.22%

# A few entries again:
Molecule,target or system,assay,test system,conditions,scale,measurement,result
colistin trifluoroacetate,Acinetobacter baumannii,broth microdilution,ATCC 19606,,,MIC,0.06 µg/mL
colistin,Acinetobacter baumannii,broth microdilution,clinical isolate RKI-No_16/15,,,MIC,≤ 0.5 µg/mL
